Published values collected from several papers.
Every numbered part comes from another study and shows a few of its results, in no order. Positions count from the first letter of the parent shown.
Sequence of UniProt Q9BYT3 (whole entry, looked up): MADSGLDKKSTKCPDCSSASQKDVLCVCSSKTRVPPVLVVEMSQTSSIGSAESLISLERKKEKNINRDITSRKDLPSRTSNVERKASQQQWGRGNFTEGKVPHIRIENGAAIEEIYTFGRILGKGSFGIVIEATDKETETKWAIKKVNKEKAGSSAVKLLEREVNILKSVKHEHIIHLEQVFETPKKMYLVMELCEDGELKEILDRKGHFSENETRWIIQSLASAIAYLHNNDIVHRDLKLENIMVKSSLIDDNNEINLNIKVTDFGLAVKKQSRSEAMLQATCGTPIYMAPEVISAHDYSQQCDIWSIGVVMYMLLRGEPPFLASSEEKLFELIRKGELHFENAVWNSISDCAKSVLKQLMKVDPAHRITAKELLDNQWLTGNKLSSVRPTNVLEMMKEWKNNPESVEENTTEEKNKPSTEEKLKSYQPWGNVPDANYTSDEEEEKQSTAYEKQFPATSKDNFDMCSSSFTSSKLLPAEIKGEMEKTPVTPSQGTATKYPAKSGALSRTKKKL
Sequence of UniProt P41143 (whole entry, looked up): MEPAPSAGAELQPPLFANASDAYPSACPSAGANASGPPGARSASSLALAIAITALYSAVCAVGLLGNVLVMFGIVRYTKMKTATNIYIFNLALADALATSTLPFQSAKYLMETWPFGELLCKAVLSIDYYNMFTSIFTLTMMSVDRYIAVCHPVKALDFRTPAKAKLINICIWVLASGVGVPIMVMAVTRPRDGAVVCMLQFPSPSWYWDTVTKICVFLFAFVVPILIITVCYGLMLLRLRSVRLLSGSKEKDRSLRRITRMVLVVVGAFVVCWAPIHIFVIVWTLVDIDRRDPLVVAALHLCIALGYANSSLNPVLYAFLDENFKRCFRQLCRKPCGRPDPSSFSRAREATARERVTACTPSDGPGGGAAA

Sample 1 — target: CCND3, cyclin fold, Cln2 fusion (human); technique: yeast growth competition, sequencing; sample: yeast; notes: weak parent motif; relative to: not given; direction: higher = stronger binding
Starting sequence: viral docking peptide; TSVRRALFTGGSD; partner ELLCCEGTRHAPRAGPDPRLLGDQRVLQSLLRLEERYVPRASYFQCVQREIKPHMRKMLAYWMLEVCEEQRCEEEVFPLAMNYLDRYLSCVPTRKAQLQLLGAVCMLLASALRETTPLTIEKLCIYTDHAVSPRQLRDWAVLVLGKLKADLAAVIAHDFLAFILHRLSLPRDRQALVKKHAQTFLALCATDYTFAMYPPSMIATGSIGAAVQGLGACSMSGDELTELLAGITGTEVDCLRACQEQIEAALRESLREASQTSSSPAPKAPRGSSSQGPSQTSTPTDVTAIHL
| Substitution | normalised enrichment score |
| --- | --- |
| TFVRRALFTGGSD [S2F] | 0.102 |
| TSVRRALFTGGCD [S12C] | -0.0463 |
| TSVRRALCTGGSD [F8C] | -0.195 |
| TIVRRALFTGGSD [S2I] | 0.0728 |
| TSSRRALFTGGSD [V3S] | -0.357 |
| TSVRRALFTGPSD [G11P] | 0.291 |
| TSVRRALFTGGID [S12I] | 0.33 |
| TSLRRALFTGGSD [V3L] | -0.298 |

Sample 2 — target: vanadate, free oxyanion; technique: microfluidic competitive inhibition; sample: in vitro, cell-free expressed; concentration: not given; direction: lower = stronger binding
Notes: derived from inhibition constants, unchanged parent 676 nM
Starting sequence: PafA, mature enzyme, eGFP fusion (Elizabethkingia meningoseptica, UniProt Q9KJX5); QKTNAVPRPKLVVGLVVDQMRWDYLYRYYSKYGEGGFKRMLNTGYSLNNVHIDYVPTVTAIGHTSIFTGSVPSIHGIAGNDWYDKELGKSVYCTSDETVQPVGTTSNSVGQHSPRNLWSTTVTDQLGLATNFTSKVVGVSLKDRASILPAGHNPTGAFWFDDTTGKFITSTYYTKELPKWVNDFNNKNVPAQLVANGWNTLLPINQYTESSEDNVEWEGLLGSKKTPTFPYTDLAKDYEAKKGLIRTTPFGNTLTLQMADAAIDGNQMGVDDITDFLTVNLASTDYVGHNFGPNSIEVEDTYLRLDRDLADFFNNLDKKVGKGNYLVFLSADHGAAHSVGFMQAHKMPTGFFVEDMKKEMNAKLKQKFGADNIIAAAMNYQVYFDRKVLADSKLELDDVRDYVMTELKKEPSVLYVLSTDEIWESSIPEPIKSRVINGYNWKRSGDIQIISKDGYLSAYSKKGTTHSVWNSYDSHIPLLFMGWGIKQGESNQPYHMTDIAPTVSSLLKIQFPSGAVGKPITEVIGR
| Substitution | oxyanion analog dissociation constant [nM] |
| --- | --- |
| A262V | 731 |
| K393G | 599 |
| V403A | 637 |
| D271V | 1270 |
| N153G | 590 |
| D371G | 614 |
| E218V | 533 |
| L254G | 1180 |

Mixed results
CDPK1: Calcium-dependent protein kinase 1 (CDPK1, Plasmodium falciparum, UniProt P62344)
| Compound | tested on | assay | system | conditions | how to read | measurement | value |
| --- | --- | --- | --- | --- | --- | --- | --- |
| COc1cccc(CNC(=O)c2nc3scc(COCc4ccc(C(=O)O)cc4)c3c(=O)[nH]2)c1 | CDPK1 | cell-free assay, competition with immobilised ligand |  | 1 µM |  | remaining binding | 72.7% |
| Cn1cc(C2=C(c3cn(C4CCN(Cc5ccccn5)CC4)c4ccccc34)C(=O)NC2=O)c2ccccc21 |  | AlphaScreen signal, AlphaScreen counter screen | His6 peptide without bromodomain | 50 µM, assay interference check |  | inhibition | 80.3% |
| Cc1nc(C2CCN(C(=O)c3ccc(OC(F)(F)F)cc3N)CC2)c2ncc(N3CCN(C)CC3)cc2n1 | CDPK1 | cell-free assay, competition with immobilised ligand |  | 1 µM |  | remaining binding | 100% |
| O=C1CN(Cc2ccc(-c3ccc(F)c(CN4CCS(=O)(=O)CC4)n3)cc2)C(=O)N1C1CC1 | mouse MPNST tumor cells | high-content nuclear imaging, item: cell number |  | 10 µM, 12 h, mean of 2 replicates | relative to: plate mean, higher = more cells | nuclei count | 0.528 z-score |
| CCCCN(CCCC)C(=O)CN1C[C@@H](c2cc(OC)c3c(c2)OCO3)[C@H](C(=O)O)[C@H]1CC(C)(C)CCC | Delta-type opioid receptor (OPRD1, Homo sapiens, UniProt P41143) | binding, radioligand binding |  | 10 µM |  | inhibition | 41.2% |
| C=CC(=O)N1CCC([C@@H]2CCNc3c(C(N)=O)c(-c4ccc(Oc5ccccc5)cc4)nn32)CC1 | Serine/threonine-protein kinase 33 (STK33, Homo sapiens, UniProt Q9BYT3) | enzyme activity, inhibitor |  | 1 µM |  | inhibition | 7% |
| CC(=O)C1=C(C)N(c2cccc(C(F)(F)F)c2)C(=O)N[C@H]1c1ccc(C#N)nc1 | Sodium-dependent serotonin transporter (SLC6A4, Homo sapiens, UniProt P31645) | cell-free assay |  | 10 µM |  | inhibition | 2.85% |

A few entries again (mixed results):
| Compound | tested on | assay | system | conditions | how to read | measurement | value |
| --- | --- | --- | --- | --- | --- | --- | --- |
| CCCCN(CCCC)C(=O)CN1C[C@@H](c2cc(OC)c3c(c2)OCO3)[C@H](C(=O)O)[C@H]1CC(C)(C)CCC | Delta-type opioid receptor (OPRD1, Homo sapiens, UniProt P41143) | binding, radioligand binding |  | 10 µM |  | inhibition | 41.2% |
| COc1cccc(CNC(=O)c2nc3scc(COCc4ccc(C(=O)O)cc4)c3c(=O)[nH]2)c1 | CDPK1 | cell-free assay, competition with immobilised ligand |  | 1 µM |  | remaining binding | 72.7% |
